Results collected from several papers.
Every numbered part comes from another study and shows a few of its results, in no order.
Sequence of UniProt P07333 (whole entry, looked up): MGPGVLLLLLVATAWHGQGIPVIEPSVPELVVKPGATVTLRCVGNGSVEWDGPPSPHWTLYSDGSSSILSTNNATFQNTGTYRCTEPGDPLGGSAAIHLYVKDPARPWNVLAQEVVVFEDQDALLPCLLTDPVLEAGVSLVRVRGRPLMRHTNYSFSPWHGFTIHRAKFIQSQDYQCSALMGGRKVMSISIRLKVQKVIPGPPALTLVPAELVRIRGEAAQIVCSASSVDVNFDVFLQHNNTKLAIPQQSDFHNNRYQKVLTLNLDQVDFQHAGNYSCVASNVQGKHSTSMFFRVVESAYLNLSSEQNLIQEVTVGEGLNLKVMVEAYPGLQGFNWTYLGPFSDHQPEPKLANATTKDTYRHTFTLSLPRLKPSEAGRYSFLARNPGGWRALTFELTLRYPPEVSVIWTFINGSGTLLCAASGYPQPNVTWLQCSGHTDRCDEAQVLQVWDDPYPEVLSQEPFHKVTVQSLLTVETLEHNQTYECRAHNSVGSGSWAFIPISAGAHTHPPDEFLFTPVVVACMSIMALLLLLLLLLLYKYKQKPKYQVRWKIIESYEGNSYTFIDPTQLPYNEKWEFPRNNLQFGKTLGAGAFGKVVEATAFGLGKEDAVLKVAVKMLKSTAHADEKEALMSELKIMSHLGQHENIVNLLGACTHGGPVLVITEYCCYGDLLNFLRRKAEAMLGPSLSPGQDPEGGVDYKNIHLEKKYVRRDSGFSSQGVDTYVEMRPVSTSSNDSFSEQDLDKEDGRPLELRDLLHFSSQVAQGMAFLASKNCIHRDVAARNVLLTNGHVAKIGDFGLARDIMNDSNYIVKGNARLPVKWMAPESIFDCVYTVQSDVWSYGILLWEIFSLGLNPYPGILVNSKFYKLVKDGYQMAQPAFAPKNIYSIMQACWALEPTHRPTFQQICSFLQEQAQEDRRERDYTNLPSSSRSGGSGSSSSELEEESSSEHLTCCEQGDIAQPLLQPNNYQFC
Sequence of UniProt Q9H0K1 (whole entry, looked up): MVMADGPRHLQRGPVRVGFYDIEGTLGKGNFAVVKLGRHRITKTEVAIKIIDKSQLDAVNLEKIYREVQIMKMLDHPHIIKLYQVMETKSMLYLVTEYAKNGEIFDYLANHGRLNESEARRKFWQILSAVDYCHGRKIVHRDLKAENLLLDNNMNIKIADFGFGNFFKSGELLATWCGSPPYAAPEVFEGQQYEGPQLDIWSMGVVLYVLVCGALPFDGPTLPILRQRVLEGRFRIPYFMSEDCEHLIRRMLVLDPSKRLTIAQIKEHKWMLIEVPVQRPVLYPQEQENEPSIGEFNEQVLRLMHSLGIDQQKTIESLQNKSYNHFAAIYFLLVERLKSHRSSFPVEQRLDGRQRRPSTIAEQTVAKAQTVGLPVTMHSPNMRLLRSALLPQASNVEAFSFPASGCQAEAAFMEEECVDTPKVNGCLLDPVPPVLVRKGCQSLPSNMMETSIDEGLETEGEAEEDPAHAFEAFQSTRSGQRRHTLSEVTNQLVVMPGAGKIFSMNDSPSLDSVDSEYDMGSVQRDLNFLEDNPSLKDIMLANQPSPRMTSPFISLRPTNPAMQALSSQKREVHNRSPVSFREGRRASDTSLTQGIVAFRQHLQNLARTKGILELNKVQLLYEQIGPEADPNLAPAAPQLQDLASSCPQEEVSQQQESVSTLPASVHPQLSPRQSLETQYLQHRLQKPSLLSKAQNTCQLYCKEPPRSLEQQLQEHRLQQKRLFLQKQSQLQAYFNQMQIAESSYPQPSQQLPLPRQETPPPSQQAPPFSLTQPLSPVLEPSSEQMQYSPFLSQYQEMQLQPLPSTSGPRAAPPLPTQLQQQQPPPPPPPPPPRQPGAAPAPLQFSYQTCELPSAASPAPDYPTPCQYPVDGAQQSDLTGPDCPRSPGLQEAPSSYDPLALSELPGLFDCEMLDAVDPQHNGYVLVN
Sequence of UniProt P21709 (whole entry, looked up): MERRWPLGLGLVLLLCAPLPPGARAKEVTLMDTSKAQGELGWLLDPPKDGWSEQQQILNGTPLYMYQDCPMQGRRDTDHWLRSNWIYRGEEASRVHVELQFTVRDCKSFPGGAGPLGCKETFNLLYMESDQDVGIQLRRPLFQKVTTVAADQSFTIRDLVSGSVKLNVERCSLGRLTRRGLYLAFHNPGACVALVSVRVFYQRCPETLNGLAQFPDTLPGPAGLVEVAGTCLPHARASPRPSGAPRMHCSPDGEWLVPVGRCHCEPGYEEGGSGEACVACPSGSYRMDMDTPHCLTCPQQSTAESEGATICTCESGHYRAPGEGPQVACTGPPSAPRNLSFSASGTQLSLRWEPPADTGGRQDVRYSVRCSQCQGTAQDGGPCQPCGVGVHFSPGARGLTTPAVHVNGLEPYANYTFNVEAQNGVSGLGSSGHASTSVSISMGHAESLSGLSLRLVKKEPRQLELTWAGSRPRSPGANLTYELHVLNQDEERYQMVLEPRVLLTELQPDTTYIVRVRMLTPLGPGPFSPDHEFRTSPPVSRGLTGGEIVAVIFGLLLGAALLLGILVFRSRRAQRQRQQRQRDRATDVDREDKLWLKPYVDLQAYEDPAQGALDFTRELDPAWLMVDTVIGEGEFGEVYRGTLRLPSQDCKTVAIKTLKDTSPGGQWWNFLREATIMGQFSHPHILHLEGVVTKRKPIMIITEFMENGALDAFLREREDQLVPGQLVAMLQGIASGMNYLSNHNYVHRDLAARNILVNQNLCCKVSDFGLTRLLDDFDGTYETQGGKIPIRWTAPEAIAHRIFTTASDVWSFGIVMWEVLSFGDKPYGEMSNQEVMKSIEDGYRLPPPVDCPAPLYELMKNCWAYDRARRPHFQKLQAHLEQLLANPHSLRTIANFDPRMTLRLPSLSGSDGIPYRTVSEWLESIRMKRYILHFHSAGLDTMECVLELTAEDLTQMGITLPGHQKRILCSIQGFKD
Sequence of UniProt P78356 (whole entry, looked up): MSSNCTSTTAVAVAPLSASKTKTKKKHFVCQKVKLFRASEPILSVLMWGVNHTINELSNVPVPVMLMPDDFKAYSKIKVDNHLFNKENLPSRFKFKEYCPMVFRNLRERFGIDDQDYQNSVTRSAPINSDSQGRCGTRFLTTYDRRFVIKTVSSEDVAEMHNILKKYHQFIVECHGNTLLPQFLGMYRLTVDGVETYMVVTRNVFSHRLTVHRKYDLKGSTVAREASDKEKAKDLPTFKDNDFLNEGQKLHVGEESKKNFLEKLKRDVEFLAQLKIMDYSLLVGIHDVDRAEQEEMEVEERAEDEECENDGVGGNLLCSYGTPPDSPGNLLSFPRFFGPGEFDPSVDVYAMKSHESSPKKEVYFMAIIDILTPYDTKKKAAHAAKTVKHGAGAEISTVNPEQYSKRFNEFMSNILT
Sequence of UniProt Q96GD4 (whole entry, looked up): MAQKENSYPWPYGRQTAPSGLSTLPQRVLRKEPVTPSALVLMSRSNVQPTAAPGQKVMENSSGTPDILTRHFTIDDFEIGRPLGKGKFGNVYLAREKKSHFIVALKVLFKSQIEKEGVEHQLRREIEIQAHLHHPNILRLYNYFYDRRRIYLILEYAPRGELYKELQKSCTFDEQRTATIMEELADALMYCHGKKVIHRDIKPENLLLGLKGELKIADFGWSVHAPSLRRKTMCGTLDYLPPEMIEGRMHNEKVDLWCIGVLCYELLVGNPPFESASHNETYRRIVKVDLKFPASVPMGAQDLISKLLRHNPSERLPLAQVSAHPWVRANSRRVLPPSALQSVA

Set 1 — effect on: enzyme activity; concentration: 5 µM
Structure (SMILES): O=C(Nc1cnn(-c2csc(C(=O)NC3COC3)c2)c1)Nc1c(F)cccc1Cl
LIMK2: LIM domain kinase 2 (LIMK2, Homo sapiens, UniProt P53671)
Sequence of UniProt P53671 (whole entry, looked up): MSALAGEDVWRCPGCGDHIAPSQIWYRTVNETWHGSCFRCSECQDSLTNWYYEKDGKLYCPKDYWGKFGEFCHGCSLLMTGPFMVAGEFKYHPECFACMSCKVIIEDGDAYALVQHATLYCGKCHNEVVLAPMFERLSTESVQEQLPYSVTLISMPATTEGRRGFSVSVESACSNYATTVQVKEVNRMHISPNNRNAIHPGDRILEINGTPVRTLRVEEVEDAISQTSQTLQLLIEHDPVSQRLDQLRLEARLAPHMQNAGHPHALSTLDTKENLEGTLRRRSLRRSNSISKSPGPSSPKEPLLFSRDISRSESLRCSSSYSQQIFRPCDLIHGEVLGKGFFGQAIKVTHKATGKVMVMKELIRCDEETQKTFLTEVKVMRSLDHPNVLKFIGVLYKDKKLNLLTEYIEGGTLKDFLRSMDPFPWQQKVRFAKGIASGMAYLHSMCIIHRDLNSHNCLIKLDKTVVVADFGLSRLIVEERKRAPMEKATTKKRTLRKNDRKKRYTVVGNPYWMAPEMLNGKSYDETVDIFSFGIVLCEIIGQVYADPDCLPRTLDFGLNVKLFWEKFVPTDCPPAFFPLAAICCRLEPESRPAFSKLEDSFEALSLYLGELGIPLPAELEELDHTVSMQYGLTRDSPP
target	action	reference	remaining activity [%]
Non-receptor tyrosine-protein kinase TNK1 (TNK1, Homo sapiens, UniProt Q13470)	inhibitor		91.5
LIMK2		untreated control	93.1
Receptor-interacting serine/threonine-protein kinase 3 (RIPK3, Homo sapiens, UniProt Q9Y572)	inhibitor		97.5
Serine/threonine-protein kinase PLK4 (PLK4, Homo sapiens, UniProt O00444)	inhibitor		84.3
Tyrosine-protein kinase CSK (CSK, Homo sapiens, UniProt P41240)		untreated control	96.5
Serine/threonine-protein kinase SIK2 (SIK2, Homo sapiens, UniProt Q9H0K1)		untreated control	95.4
Dual specificity testis-specific protein kinase 1 (TESK1, Homo sapiens, UniProt Q15569)	inhibitor		84.7
LIMK2	inhibitor		94
Serine/threonine-protein kinase WNK2 (WNK2, Homo sapiens, UniProt Q9Y3S1)		untreated control	88.7
Tyrosine-protein kinase Blk (BLK, Homo sapiens, UniProt P51451)		untreated control	95.5
Serine/threonine-protein kinase 26 (STK26, Homo sapiens, UniProt Q9P289)		untreated control	69.7
Proto-oncogene tyrosine-protein kinase ROS (ROS1, Homo sapiens, UniProt P08922)		untreated control	85

Set 2 — effect on: cell-free assay; method: competition with immobilised ligand; concentration: 1 µM
SMILES: N#Cc1ccc(Nc2ccc3[nH]c(=O)[nH]c3c2)c(Cl)c1
target	remaining binding [%]
Serine/threonine-protein kinase WNK4 (WNK4, Homo sapiens, UniProt Q96J92)	100
Proto-oncogene tyrosine-protein kinase receptor Ret (RET, Homo sapiens, UniProt P07949, M918T)	100
Phosphatidylinositol 5-phosphate 4-kinase type-2 beta (PIP4K2B, Homo sapiens, UniProt P78356)	74
Ephrin type-B receptor 2 (EPHB2, Homo sapiens, UniProt P29323)	70
Insulin receptor-related protein (INSRR, Homo sapiens, UniProt P14616)	100
MAP kinase-interacting serine/threonine-protein kinase 1 (MKNK1, Homo sapiens, UniProt Q9BUB5)	100
Cyclin-dependent kinase 15 (CDK15, Homo sapiens, UniProt Q96Q40)	94
Dual serine/threonine and tyrosine protein kinase (DSTYK, Homo sapiens, UniProt Q6XUX3)	75
Epidermal growth factor receptor (EGFR, Homo sapiens, UniProt P00533, A750P/del747-749)	100
Inhibitor of nuclear factor kappa-B kinase subunit epsilon (IKBKE, Homo sapiens, UniProt Q14164)	100
Receptor-interacting serine/threonine-protein kinase 4 (RIPK4, Homo sapiens, UniProt P57078)	89
Ephrin type-A receptor 1 (EPHA1, Homo sapiens, UniProt P21709)	91
ALK tyrosine kinase receptor (ALK, Homo sapiens, UniProt Q9UM73, C1156Y)	100
Serine/threonine-protein kinase RIO3 (RIOK3, Homo sapiens, UniProt O14730)	100
Tyrosine-protein kinase JAK3, JH1 (JAK3, Homo sapiens, UniProt P52333)	100
Serine/threonine-protein kinase Nek6 (NEK6, Homo sapiens, UniProt Q9HC98)	100
Aurora kinase B (AURKB, Homo sapiens, UniProt Q96GD4)	85
Calcium/calmodulin-dependent protein kinase type II subunit beta (CAMK2B, Homo sapiens, UniProt Q13554)	91
Receptor-type tyrosine-protein kinase FLT3 (FLT3, Homo sapiens, UniProt P36888, D835V)	100
cGMP-dependent protein kinase 2 (PRKG2, Homo sapiens, UniProt Q13237)	87
Calcium/calmodulin-dependent protein kinase type 1 (CAMK1, Homo sapiens, UniProt Q14012)	86
Activin receptor type-2A (ACVR2A, Homo sapiens, UniProt P27037)	70
Macrophage colony-stimulating factor 1 receptor, autoinhibited (CSF1R, Homo sapiens, UniProt P07333)	100
Receptor tyrosine-protein kinase erbB-4 (ERBB4, Homo sapiens, UniProt Q15303)	100
Serine/threonine-protein kinase PAK 1 (PAK1, Homo sapiens, UniProt Q13153)	85

Set 3 — effect on: enzyme activity; action: inhibitor; concentration: 10 µM
Target: Calcium/calmodulin-dependent protein kinase type II subunit alpha (CAMK2A, Homo sapiens, UniProt Q9UQM7)
Sequence of UniProt Q9UQM7 (whole entry, looked up): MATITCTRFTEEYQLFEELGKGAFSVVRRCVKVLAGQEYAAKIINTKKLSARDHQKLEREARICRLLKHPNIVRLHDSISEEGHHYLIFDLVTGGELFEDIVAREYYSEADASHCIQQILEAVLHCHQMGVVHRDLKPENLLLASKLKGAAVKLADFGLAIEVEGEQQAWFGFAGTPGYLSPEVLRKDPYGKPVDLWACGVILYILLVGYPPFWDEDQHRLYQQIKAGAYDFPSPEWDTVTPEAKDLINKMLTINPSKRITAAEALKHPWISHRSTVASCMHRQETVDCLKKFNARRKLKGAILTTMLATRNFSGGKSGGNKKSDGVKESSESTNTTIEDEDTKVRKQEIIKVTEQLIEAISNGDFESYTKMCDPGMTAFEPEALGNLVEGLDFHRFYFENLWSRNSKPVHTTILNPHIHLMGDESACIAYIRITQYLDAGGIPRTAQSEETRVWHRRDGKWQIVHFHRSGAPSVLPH
Compound	inhibition
C[C@H]1CC[C@@]2(OC1)O[C@H]1C[C@H]3[C@@H]4CC=C5C[C@@H](O[C@@H]6O[C@@H](C)[C@H](O)[C@@H](O)[C@H]6O)C[C@@H](O[C@@H]6O[C@H](C)[C@H](O)[C@H](O)[C@H]6O)[C@]5(C)[C@H]4CC[C@]3(C)[C@H]1[C@@H]2C	17%
O=c1[nH]cnc2c1cnn2[C@@H]1O[C@H](CO)[C@@H](O)[C@H]1O	23%
CC1(C)[C@@H]2CC[C@@]1(C)[C@H](O)C2	11%
COC(=O)N[C@H](C(=O)N1CCC[C@H]1C(=O)Nc1ccc([C@@H]2CC[C@@H](c3ccc(NC(=O)[C@@H]4CCCN4C(=O)[C@@H](NC(=O)OC)C(C)C)cc3)N2c2ccc(C(C)(C)C)cc2)cc1)C(C)C	-2%
CCC[C@@H]1C[C@@H](C(=O)N[C@@H]([C@H]2O[C@H](SC)[C@H](O)[C@@H](O)[C@H]2O)[C@@H](C)O)N(C)C1	-7%
CCC(CC)C(=O)O	-19%
Nc1nc(O)c2[nH]nnc2n1	5%

Set 4 — host: mouse; medium: microsomes or S9; concentration: 2 µM; time: 0.5 h
Compound	remaining compound [%]
CCC(CC)(CC)S(=O)(=O)Cc1csc(C(C)(C)C)n1	0.709
CN1CCN(c2ccc(C(=O)Nc3c[nH]c4ncnc(-c5cnn(C6CCN(C(=O)OC(C)(C)C)CC6)c5)c34)cc2)CC1	> 100
O=C(Nc1ccncc1)c1nn(Cc2ccccc2)c2c1CCc1ccccc1-2	76.3
CN(C)c1ccc(C(O)CF)c(S(N)(=O)=O)n1 (stereo not drawn)	89.1
c1ccc(C2CCCN2Cc2ccc3occc3c2)nc1 (stereo not drawn)	0.0244
C=C1COC(c2cc(C)cc(C)c2)c2c(C(C)C)c(OC)nc(=O)n21 (stereo not drawn)	11.2
Cc1ccc(C(=O)C2=CN(c3cc(Cl)cc(Cl)c3)c3cc(F)ccc3S2(=O)=O)c(C)c1	4.69
COc1cccc(CNC(=O)N2Cc3c(sc4c3CCCC4)-n3cccc3C2C)c1 (stereo not drawn)	0.108
CCOc1ccc(S(=O)(=O)N2CCC(Oc3nccnc3C#N)C2)cc1C (stereo not drawn)	0.0783
CC(C)[C@H](NC(=O)c1ccc2nc(-c3ccc(NC(=O)NCc4ccccc4)cc3)cn2c1)C(=O)O	41.7

Excerpt of the above (set 1):
target	action	reference	remaining activity [%]
Tyrosine-protein kinase CSK (CSK, Homo sapiens, UniProt P41240)		untreated control	96.5
Serine/threonine-protein kinase WNK2 (WNK2, Homo sapiens, UniProt Q9Y3S1)		untreated control	88.7
Serine/threonine-protein kinase SIK2 (SIK2, Homo sapiens, UniProt Q9H0K1)		untreated control	95.4
Proto-oncogene tyrosine-protein kinase ROS (ROS1, Homo sapiens, UniProt P08922)		untreated control	85
LIMK2		untreated control	93.1
Tyrosine-protein kinase Blk (BLK, Homo sapiens, UniProt P51451)		untreated control	95.5
LIMK2	inhibitor		94
Receptor-interacting serine/threonine-protein kinase 3 (RIPK3, Homo sapiens, UniProt Q9Y572)	inhibitor		97.5
